Measurements pooled from the literature.
Protocols differ between the studies behind these lines. Numbers after ± are the reported error.
SLC6A3: Sodium-dependent dopamine transporter (SLC6A3, Homo sapiens, UniProt Q01959)
UniProt O43148, sequence (whole entry, looked up): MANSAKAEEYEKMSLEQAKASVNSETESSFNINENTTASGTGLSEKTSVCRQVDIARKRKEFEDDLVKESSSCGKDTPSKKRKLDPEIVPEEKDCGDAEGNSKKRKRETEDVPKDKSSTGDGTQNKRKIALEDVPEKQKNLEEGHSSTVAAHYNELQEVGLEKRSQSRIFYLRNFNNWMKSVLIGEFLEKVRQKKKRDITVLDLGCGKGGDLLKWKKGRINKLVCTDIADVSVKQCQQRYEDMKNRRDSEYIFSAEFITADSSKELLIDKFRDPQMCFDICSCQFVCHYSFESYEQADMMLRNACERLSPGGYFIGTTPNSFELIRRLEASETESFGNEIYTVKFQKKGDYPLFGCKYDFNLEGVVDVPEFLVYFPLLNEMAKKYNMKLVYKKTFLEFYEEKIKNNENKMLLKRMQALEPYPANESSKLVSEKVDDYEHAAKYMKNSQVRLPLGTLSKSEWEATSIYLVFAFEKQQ
UniProt Q01959, sequence (whole entry, looked up): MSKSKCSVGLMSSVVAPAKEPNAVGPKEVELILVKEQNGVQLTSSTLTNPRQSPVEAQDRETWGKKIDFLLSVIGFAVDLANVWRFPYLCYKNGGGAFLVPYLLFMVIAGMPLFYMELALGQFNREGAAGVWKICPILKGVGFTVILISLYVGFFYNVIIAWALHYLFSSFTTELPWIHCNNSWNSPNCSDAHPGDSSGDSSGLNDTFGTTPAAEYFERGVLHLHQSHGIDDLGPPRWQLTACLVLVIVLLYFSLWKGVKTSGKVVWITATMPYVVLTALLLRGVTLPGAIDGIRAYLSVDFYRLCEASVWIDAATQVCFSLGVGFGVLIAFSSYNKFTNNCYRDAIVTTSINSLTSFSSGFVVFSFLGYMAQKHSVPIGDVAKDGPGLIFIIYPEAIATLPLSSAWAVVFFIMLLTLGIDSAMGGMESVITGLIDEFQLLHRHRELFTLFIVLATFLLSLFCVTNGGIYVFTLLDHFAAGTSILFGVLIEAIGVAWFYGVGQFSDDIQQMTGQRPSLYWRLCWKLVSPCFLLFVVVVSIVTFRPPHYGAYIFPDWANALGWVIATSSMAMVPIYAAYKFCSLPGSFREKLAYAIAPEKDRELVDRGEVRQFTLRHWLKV
UniProt P28074, sequence (whole entry, looked up): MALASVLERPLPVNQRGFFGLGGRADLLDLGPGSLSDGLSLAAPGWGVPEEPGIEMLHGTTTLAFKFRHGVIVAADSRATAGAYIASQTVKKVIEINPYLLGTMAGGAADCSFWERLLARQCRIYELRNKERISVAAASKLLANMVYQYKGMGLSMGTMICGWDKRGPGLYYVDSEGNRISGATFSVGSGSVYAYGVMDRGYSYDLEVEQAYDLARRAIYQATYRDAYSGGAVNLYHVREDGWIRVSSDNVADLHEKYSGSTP
UniProt Q8E0N2, sequence (whole entry, looked up): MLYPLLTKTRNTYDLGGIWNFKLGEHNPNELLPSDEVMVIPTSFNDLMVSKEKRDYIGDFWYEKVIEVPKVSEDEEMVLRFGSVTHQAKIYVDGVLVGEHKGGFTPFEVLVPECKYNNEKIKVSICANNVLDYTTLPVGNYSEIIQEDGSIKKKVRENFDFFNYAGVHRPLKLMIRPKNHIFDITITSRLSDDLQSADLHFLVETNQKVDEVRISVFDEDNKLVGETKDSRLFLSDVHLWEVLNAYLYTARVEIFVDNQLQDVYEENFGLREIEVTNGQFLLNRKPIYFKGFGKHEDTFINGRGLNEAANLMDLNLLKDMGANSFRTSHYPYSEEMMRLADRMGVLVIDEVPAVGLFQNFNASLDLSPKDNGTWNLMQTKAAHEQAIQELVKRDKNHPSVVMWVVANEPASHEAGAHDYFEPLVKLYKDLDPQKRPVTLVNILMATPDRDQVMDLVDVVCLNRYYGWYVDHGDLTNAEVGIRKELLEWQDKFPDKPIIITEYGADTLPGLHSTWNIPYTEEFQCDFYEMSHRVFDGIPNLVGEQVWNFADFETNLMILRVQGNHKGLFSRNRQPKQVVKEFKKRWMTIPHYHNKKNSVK
UniProt P49137, sequence (whole entry, looked up): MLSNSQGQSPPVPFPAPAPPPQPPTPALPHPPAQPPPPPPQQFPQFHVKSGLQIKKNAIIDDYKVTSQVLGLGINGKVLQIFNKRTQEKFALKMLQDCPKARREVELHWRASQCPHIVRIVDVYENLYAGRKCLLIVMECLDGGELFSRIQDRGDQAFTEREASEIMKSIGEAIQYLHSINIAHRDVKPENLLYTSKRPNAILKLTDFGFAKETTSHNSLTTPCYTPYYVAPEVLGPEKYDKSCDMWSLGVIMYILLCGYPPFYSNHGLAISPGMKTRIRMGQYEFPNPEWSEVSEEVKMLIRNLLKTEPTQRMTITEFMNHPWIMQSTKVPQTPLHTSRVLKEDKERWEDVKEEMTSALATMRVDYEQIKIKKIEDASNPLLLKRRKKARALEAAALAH
UniProt P58215, sequence (whole entry, looked up): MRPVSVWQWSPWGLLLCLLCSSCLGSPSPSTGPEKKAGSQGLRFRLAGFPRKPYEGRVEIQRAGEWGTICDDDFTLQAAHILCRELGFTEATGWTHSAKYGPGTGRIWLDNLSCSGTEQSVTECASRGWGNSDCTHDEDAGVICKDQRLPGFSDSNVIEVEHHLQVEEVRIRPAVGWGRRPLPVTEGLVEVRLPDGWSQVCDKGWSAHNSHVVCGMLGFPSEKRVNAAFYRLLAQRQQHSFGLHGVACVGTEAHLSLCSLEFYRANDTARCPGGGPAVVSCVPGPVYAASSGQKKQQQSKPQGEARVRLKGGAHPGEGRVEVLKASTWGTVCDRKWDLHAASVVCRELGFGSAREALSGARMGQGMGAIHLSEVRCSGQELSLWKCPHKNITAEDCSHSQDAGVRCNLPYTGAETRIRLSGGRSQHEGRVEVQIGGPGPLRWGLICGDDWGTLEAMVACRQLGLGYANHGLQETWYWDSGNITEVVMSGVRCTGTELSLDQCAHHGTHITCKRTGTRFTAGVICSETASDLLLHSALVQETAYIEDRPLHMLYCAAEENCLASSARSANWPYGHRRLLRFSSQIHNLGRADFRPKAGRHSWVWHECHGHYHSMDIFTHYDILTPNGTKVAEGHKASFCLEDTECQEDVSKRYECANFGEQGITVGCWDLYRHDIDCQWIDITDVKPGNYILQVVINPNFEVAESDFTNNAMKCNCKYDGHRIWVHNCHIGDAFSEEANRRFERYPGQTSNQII
UniProt P97612, sequence (whole entry, looked up): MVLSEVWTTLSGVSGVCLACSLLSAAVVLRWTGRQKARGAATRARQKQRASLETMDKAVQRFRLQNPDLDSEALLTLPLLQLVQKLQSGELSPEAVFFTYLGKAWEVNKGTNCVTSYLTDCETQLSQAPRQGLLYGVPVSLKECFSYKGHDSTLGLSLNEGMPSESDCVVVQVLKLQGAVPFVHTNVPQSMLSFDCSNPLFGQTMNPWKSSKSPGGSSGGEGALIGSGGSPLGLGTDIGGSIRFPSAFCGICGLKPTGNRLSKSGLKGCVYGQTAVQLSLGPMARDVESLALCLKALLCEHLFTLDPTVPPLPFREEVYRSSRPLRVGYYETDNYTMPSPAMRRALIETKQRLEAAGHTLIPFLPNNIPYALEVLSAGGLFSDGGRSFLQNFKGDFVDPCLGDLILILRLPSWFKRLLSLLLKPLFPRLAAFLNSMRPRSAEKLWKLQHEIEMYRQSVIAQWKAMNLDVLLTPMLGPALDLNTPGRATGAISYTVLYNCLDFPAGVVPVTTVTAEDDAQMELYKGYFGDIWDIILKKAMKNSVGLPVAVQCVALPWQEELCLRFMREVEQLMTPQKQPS
UniProt P30550, sequence (whole entry, looked up): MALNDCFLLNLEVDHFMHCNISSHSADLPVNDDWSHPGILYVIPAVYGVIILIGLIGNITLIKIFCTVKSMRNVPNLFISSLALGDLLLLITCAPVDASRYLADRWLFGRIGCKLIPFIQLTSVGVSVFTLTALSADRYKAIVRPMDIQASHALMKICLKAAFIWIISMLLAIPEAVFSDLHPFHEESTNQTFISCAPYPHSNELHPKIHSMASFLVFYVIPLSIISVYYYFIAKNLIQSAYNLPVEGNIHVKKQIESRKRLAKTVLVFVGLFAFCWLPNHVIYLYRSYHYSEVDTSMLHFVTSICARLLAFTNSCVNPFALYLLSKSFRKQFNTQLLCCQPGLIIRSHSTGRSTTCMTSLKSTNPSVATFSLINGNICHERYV
UniProt P05804, sequence (whole entry, looked up): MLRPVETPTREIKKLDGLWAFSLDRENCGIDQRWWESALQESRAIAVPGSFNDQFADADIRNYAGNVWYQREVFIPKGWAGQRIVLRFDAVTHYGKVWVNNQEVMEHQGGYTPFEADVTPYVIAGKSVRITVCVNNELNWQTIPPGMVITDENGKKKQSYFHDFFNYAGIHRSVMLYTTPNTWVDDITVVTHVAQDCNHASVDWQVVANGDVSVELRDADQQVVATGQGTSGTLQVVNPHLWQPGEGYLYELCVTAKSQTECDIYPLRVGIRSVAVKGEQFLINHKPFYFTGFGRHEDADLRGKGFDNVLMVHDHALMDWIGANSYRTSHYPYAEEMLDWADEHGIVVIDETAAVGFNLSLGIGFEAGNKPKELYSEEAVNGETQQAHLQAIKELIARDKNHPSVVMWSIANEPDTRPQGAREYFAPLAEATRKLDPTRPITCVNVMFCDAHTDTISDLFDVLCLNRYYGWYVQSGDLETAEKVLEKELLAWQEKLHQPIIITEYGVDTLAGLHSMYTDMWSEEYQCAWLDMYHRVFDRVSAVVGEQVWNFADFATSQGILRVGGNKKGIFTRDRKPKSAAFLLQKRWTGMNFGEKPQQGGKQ
UniProt P62942, sequence (whole entry, looked up): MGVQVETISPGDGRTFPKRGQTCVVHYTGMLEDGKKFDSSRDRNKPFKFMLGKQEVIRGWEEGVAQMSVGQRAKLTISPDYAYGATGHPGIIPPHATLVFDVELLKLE

SMILES	target	assay	system	conditions	IC50
CCCCCC1CC(=O)N[C@@H](CO)C(=O)N[C@@H](Cc2ccccc2)C(=O)N[C@@H](Cc2ccc(O)cc2)C(=O)N[C@H](CCCNC(N)=O)C(=O)N[C@@H](CC(=O)O)C(=O)O1 (some centres unmarked)	Proteasome component C5/PSMB5 (Homo sapiens, UniProt P20618+P28074)	enzyme activity, inhibitor	–	–	> 50000 nM
O=C(NCCCCCn1ccc2ccc(F)cc21)Oc1cccc(F)c1	Faah (Rattus norvegicus, UniProt P97612)	–	rat brain homogenate	60 min, 37 °C	15 nM
C1CCc2c(c(N3CCOCC3)nc3sc4c(N5CCCNCC5)nnnc4c23)C1	Beta-glucuronidase (uidA, Escherichia coli, UniProt P05804)	enzyme activity, inhibitor	–	–	1200 nM
Cc1ccc2c(n1)c(-c1cccc(S(C)(=O)=O)c1)c(C)n2C/C(F)=C/CN	LOXL3 (Homo sapiens, UniProt P58215)	enzyme activity, inhibitor, fluorescence	–	with preincubation	20 nM
CCCCCCCCCCCCCCCc1ccc(C(F)P(=O)(O)O)cc1 (racemic)	Autotaxin (ENPP2, Homo sapiens, UniProt Q13822)	enzyme activity, inhibitor	–	added: FS-3 1 µM	17900 nM
C[C@@H]1CN(c2nnnc3c2sc2nc(N4CCOCC4)c4c(c23)CCCC4)CCN1	Beta-glucuronidase (Streptococcus agalactiae serotype V, UniProt Q8E0N2)	–	Streptococcus agalactiae	–	2400 ± 400 nM
O=C(C[P+]([Au-][Cl])(c1ccccc1)c1ccccc1)[O][Ti+2][O]C(=O)C[P+]([Au-][Cl])(c1ccccc1)c1ccccc1.c1cc[cH-]c1.c1cc[cH-]c1	MAPKAPK2 (Homo sapiens, UniProt P49137)	enzyme activity, inhibitor, radiometric	–	–	712 nM
COC1CC(=O)N(C)C=CCCCC(=O)N(C)C(C(C)C)C(=O)N(C)C(CC(C)C)C(=O)OC(C(C)C)CC(C)C1 (centres unmarked)	TACR2 (Homo sapiens, UniProt P21452)	β-arrestin recruitment, antagonist	–	–	7000 nM
C[C@@]12CC[C@@H]3c4cc(Cl)c(O)c(Cl)c4CC[C@H]3[C@@H]1CCC2=O	AKR1C1 (Homo sapiens, UniProt Q04828)	enzyme activity, inhibitor, absorbance	–	pH 9	2800 nM
CC1C(=NNC(=O)c2ccncc2)C(C)C(c2ccc(Br)cc2)OC1c1ccc(Br)cc1 (centres unmarked)	gyrB (Escherichia coli, UniProt P0AES6)	ATPase activity, inhibitor	–	–	4980 nM
CC(C)C[C@H](NC(=O)OCc1ccccc1)C(=O)N[C@@H](C[C@@H]1CCNC1=O)C(O)S(=O)(=O)O (some centres unmarked)	Genome polyprotein, 3C protease (Human enterovirus 71, UniProt B9VUU3)	protease activity, inhibitor, FRET	Enterovirus A71	no DTT	60 ± 20 nM
CC(C)=C/C=C/[C@@H](C)[C@H]1CC[C@@H]2[C@]1(C)CC[C@H]1[C@]23C=C[C@]2(C[C@@H](O)CC[C@]12C)OO3	Cathepsin B (CTSB, Homo sapiens, UniProt P07858)	enzyme activity, inhibitor, fluorescence	–	–	8180 nM
CC(C)C[C@H](c1ccc(Cl)cc1)[C@H]1CCCCN1	SLC6A2 (Homo sapiens, UniProt P23975)	inhibitor	–	–	210 ± 24 nM
CN[C@H](CC(C)C)C(=O)N[C@H]1C(=O)N[C@@H](CC(N)=O)C(=O)N[C@H]2C(=O)N[C@H]3C(=O)N[C@H](C(=O)N[C@H](C(=O)O)c4cc(O)cc(O)c4-c4cc3ccc4O)[C@H](O)c3ccc(c(Cl)c3)Oc3cc2cc(c3O[C@@H]2O[C@H](CO)[C@@H](O)[C@H](O)[C@H]2O[C@H]2C[C@](C)(NCc3ccc(C(=O)OCCCCCCN(Cc4ccccn4)Cc4ccccn4)cc3)[C@H](O)[C@H](C)O2)Oc2ccc(cc2Cl)[C@H]1O	VIM-1 (Pseudomonas aeruginosa, UniProt A0A0F7KYQ8)	enzyme activity, inhibitor, fluorescence	–	–	3600 nM
COC(=O)CC[C@@H]1NC(=O)[C@H](Cc2c[nH]c3ccccc23)NC(=O)[C@H](CC(=O)O)NC(=O)[C@H](CO)NC(=O)[C@@H]2CCCN2C(=O)[C@H](Cc2ccc(O)cc2)NC(=O)[C@@H](NC(=O)[C@H](CC(C)C)NC(=O)[C@@H](NC(=O)[C@H](CO)NC(=O)[C@H](CO)NC(=O)[C@H](CCCNC(=N)N)NC(C)=O)[C@@H](C)O)CCCCNC(=O)CC[C@@H](C(=O)N[C@@H](Cc2ccccc2)C(=O)O)NC1=O	Chymotrypsinogen A (Bos taurus, UniProt P00766)	enzyme activity, inhibitor, fluorescence	–	–	4000 nM
O=C1c2c(O)cccc2Cc2cccc(O)c21	RNMT (Homo sapiens, UniProt O43148)	enzyme activity, inhibitor	–	–	< 50 nM
COc1ccc(CC[C@H]2OC(=O)[C@@H]3CCCCN3C(=O)C(=O)C(C)(C)COC(=O)/C=C/CCN(C)C(=O)[C@H](CC(C)C)N(C)C(=O)[C@H]3CCCN3C(=O)[C@H](Cc3ccccc3)N(C)C(=O)[C@H](c3ccccc3)NC(=O)CCC(=O)Nc3cccc2c3)cc1OC	FKBP1A/SLC29A1 (Homo sapiens, UniProt P62942+Q99808)	thymidine uptake, inhibitor	PK-15 expressing hENT1	30 min, added: [3H]-thymidine	3.3 nM
C=C1C(=O)N[C@@H](C)C(=O)N(C)[C@@H](C)C(=O)N[C@@H]([C@@H](C)OC(=O)[C@@H](NC(C)=O)[C@@H](C)O)C(=O)N(C)[C@@H]([C@@H](C)OC)C(=O)O[C@H](C)[C@H](NC(C)=O)C(=O)O[C@H](Cc2ccccc2)C(=O)N1C	Guanine nucleotide binding protein q polypeptide (Cricetulus griseus, UniProt Q3HR10)	inositol phosphate, antagonist, TR-FRET	–	–	32300 nM
O=C(O)CN(CC(=O)O)CP(=O)(O)O	IMP-28 metallo-beta-lactamase	enzyme activity, inhibitor, FC5 fluorescent substrate	–	60 pM enzyme, 1 µM ZnSO4	39000 ± 7000 nM

SMILES	target	assay	system	conditions	IC50
NC(Cc1cc(O)c(O)cc1O)C(=O)O (racemic)	mRNA cap guanine-N(7) methyltransferase, with RAM (RNMT, Homo sapiens, UniProt O43148)	enzyme activity, inhibitor	–	–	3170 ± 440 nM
Cn1c(C(=O)NCCN2CCC3(CC2)C(=O)NCN3Cc2cccnc2)cc2ccccc21	Phospholipase D2 (Homo sapiens, UniProt O14939)	enzyme activity, inhibitor	–	–	> 20000 nM
COc1ccc(N=Nc2cccc(NC(=O)CCCCCCC(=O)NO)c2)cc1	HDAC2 (Homo sapiens, UniProt Q92769)	enzyme activity, inhibitor	–	trans isomer	113 ± 20 nM
CC(C)[C@H](NC(=O)c1ccc(CNc2nc3c(c(=O)[nH]2)CCC3)cc1)C(=O)NC1CNC1	Collagenase 3 (MMP13, Homo sapiens, UniProt P45452)	enzyme activity, inhibitor	–	TFA salt, added: fTHP-15(FAM) substrate	28 nM
Nc1ncnc2c1ncn2[C@@H]1O[C@H](CSCCNC(=O)NCCc2ccccc2)[C@@H](O)[C@H]1O	CARM1 (Homo sapiens, UniProt Q86X55)	enzyme activity, inhibitor, radiometric	–	–	10000 nM
Nc1ccn(CC2COP(=O)(OCCNC(=O)CCCCC3SCC4NC(=O)NC43)CO2)c(=O)n1 (mixture of isomers)	Sodium-dependent multivitamin transporter (Canis lupus familiaris, UniProt A0A8I3MY61)	biotin uptake	MDCK-MDR1	added: [3H]-biotin	31400 ± 3050 nM
CSCC[C@H](NC(=O)[C@H](Cc1ccccc1)NC(=O)[C@H](Cc1c[nH]cn1)NC(=O)CNC(=O)[C@@H](NC(=O)[C@H](C)NC(=O)[C@H](Cc1c[nH]c2ccccc12)NC(=O)[C@H](CCC(N)=O)NC(=O)[C@@H]1CCCN1C(=O)[C@@H](NC(=O)[C@@H]1CCC(=O)N1)C(C)C)C(C)C)C(N)=O	GRPR (Homo sapiens, UniProt P30550)	ligand displacement in cells, radioligand	–	–	2.24 nM
NC(=O)CCC1CCCN(C(=O)c2c[nH]n3c2nc(=O)c2ccccc23)C1 (centres unmarked)	Genome polyprotein, 3C protease (rhinovirus B14, UniProt P03303)	3C protease activity, SAMDI-MS	human rhinovirus	–	> 100000 nM
OC(COCc1ccccc1Cl)CN1CC=C(c2c[nH]c3ccccc23)CC1 (racemic)	SLC6A3	transporter uptake, inhibitor, radiometric	–	–	3440 nM
CCn1c(-c2ccc(-c3ccc(F)cc3)cc2)c(-c2ccc(-c3ccc(F)cc3)cc2)n(CC)c1=[Se+][Au-][P+](CC)(CC)CC.Cl	thioredoxin reductase (Acinetobacter baumannii, UniProt A0A0G4QN87)	enzyme activity, inhibitor	–	added: DTNB	5080 nM
CC[C@H](C)[C@H](NC(=O)CN(CCOC)C(=O)CN(CCOC)C(=O)CNCCOC)C(=O)N[C@@H](CO)C(=O)N[C@@H](CCC(N)=O)C(=O)N[C@H](C(=O)N[C@@H](CC(N)=O)C(=O)N[C@@H](CCC(=O)O)C(=O)N[C@@H](CCCCN)C(=O)N[C@H](C(=O)N[C@@H](CC(N)=O)C(=O)N[C@@H](CCC(N)=O)C(=O)N[C@@H](CO)C(=O)N[C@@H](CC(C)C)C(=O)N[C@@H](C)C(=O)N[C@@H](Cc1ccccc1)C(=O)N[C@H](C(=O)N[C@@H](CCCNC(=N)N)C(=O)N[C@@H](CCCCN)C(=O)N[C@@H](CO)C(=O)N[C@@H](CC(=O)O)C(=O)N[C@@H](CCC(=O)O)C(=O)O)[C@@H](C)CC)[C@@H](C)CC)C(C)C	hRSV fusion protein 5-helix bundle	binding, fluorescence polarization	–	added: Fl-C35 tracer 5 nM	> 200000 nM
CC[C@H](C)[C@H](NC(=O)CN)C(=O)NCC(=O)N[C@@H](C)C(=O)N[C@H](C(=O)N[C@@H](CC(C)C)C(=O)N[C@@H](CCCCN)C(=O)N[C@H](C(=O)N[C@@H](CC(C)C)C(=O)N[C@H](C(=O)N[C@H](C(=O)NCC(=O)N[C@@H](CC(C)C)C(=O)N1CCC[C@H]1C(=O)N[C@@H](C)C(=O)N[C@@H](CC(C)C)C(=O)N[C@H](C(=O)N[C@@H](CO)C(=O)N[C@@H](Cc1c[nH]c2ccccc12)C(=O)N[C@H](C(=O)N[C@@H](CCCCN)C(=O)N[C@@H](CCCNC(=N)N)C(=O)N[C@@H](CCCCN)C(=O)N[C@@H](CCCNC(=N)N)C(=O)N[C@@H](CCC(N)=O)C(=O)N[C@@H](CCC(N)=O)C(N)=O)[C@@H](C)CC)[C@@H](C)CC)[C@@H](C)O)[C@@H](C)O)C(C)C)C(C)C	SLC6A3	ligand displacement, radioligand	–	cell membranes	880 nM
COC(=O)C=CCCC(NC(=O)c1ccncc1C(=O)O)C(=O)NC(C(=O)N1CC(=O)CC1C(=O)NC(C(=O)NC(C(N)=O)C1CCCCC1)C1CCCCC1)C(C)(C)C (centres unmarked)	Coagulation factor XIII A chain (Crab-eating macaque, UniProt A0A7N9D9X7)	isopeptidase activity, inhibitor	–	added: A101 substrate	15 ± 0.1 nM
CC(C)C[C@H](NC(=O)[C@H](CC(C)C)NC(=O)[C@H](CCCNC(=N)N)NC(=O)[C@@H](N)CS)C(=O)O	PPO3 (Agaricus bisporus, UniProt C7FF04)	enzyme activity, inhibitor	–	–	144000 nM
CC(C)C[C@@H]1NC(=O)[C@H](CCCNC(=N)N)NC(=O)[C@H](CCCCN)NC(=O)[C@H](CC(=O)O)NC(=O)[C@H](CCCCN)NC(=O)[C@@H](CO)NC1=O	ADAM10 (Homo sapiens, UniProt O14672)	enzyme activity, inhibitor, fluorescence	–	–	> 10000 nM
CCCn1nnc(-c2cccc(NC(=O)[C@H](C)CS)c2)n1	VIM-2 (Escherichia coli, UniProt Q5U7L7)	enzyme activity, inhibitor, fluorescence	–	with preincubation	18.2 nM
CC[C@H](C)[C@@H]1NC(=O)[C@H](Cc2ccccc2)NC(=O)[C@H](CC(=O)O)NC(=O)[C@@H](NC(C)=O)CSC(=O)[C@H](CCSC)NC1=O	accessory gene regulator protein C (Staphylococcus aureus, UniProt O33587)	–	–	–	9.42 nM
Cc1cccc(-c2nc(Nc3ccncn3)c3c(C)csc3n2)n1	Cytochrome P450 3A4 (CYP3A4, Homo sapiens, UniProt P08684)	enzyme activity, inhibitor	–	added: VG substrate	76000 nM
C[C@@H](NC(=O)[C@@H](N)Cc1ccc(O)cc1)C(=O)NCC(=O)N[C@@H](Cc1ccc(F)cc1)C(=O)N1CCN(C(=O)[C@H](Cc2ccc(F)cc2)NC(=O)CNC(=O)[C@@H](C)NC(=O)[C@@H](N)Cc2ccc(O)cc2)CC1	delta opioid receptor, mouse	vas deferens contraction, agonist	mouse vas deferens	–	2.7 ± 1.7 nM

Some of these lines once more:
SMILES	target	assay	system	conditions	IC50
CC(C)C[C@H](c1ccc(Cl)cc1)[C@H]1CCCCN1	SLC6A2 (Homo sapiens, UniProt P23975)	inhibitor	–	–	210 ± 24 nM
CN[C@H](CC(C)C)C(=O)N[C@H]1C(=O)N[C@@H](CC(N)=O)C(=O)N[C@H]2C(=O)N[C@H]3C(=O)N[C@H](C(=O)N[C@H](C(=O)O)c4cc(O)cc(O)c4-c4cc3ccc4O)[C@H](O)c3ccc(c(Cl)c3)Oc3cc2cc(c3O[C@@H]2O[C@H](CO)[C@@H](O)[C@H](O)[C@H]2O[C@H]2C[C@](C)(NCc3ccc(C(=O)OCCCCCCN(Cc4ccccn4)Cc4ccccn4)cc3)[C@H](O)[C@H](C)O2)Oc2ccc(cc2Cl)[C@H]1O	VIM-1 (Pseudomonas aeruginosa, UniProt A0A0F7KYQ8)	enzyme activity, inhibitor, fluorescence	–	–	3600 nM
COC(=O)CC[C@@H]1NC(=O)[C@H](Cc2c[nH]c3ccccc23)NC(=O)[C@H](CC(=O)O)NC(=O)[C@H](CO)NC(=O)[C@@H]2CCCN2C(=O)[C@H](Cc2ccc(O)cc2)NC(=O)[C@@H](NC(=O)[C@H](CC(C)C)NC(=O)[C@@H](NC(=O)[C@H](CO)NC(=O)[C@H](CO)NC(=O)[C@H](CCCNC(=N)N)NC(C)=O)[C@@H](C)O)CCCCNC(=O)CC[C@@H](C(=O)N[C@@H](Cc2ccccc2)C(=O)O)NC1=O	Chymotrypsinogen A (Bos taurus, UniProt P00766)	enzyme activity, inhibitor, fluorescence	–	–	4000 nM
